# Experimental data collected from several papers.
# Several values in a cell are separate wells, animals, samples, runs or records. Numbers after ± are the reported error.
SMILES,tested on,test,test system,setting,scale,quantity,result
O=C(N/N=C/c1ccc(C[n+]2ccccc2)cc1)N/N=C/c1ccc(C[n+]2ccccc2)cc1,hp2 hairpin duplex DNA,FRET melting,,"1 µM, with: ds26 10 µM",,ΔTm,0.9 ± 0.1 °C
CNS(=O)(=O)Nc1nccc(Cc2c(C)c3ccc(Oc4ncccc4F)cc3oc2=O)c1F,A253,cell viability,,7 days,,IC50,0.0627 µM
COC1CN([C@H]2CC[C@H]([C@@]3(C)Oc4c(Cl)cc(C(=O)NCc5c(SC)cc(C)[nH]c5=O)c(C)c4O3)CC2)C1,,"RNA-seq, measured: ARFGEF3 mouse homolog","mouse, HT-1376 xenograft, whole blood",dose not given,reference: vehicle,log2 fold change,1.25
C[n+]1cccc2cc(/C=N/NC(=O)c3cncc(C(=O)N/N=C/c4ccc5c(ccc[n+]5C)c4)n3)ccc21,hp2 hairpin duplex DNA,FRET melting,,1 µM,,ΔTm,1.1 °C
Cc1ncsc1-c1ccc(C(C)NC(=O)C2CC(O)CN2C(=O)C(NC(=O)CCCCCCCCCCN2CCCC(Nc3ncc(Cl)c(Nc4ccccc4S(=O)(=O)C(C)C)n3)C2)C(C)(C)C)cc1 (centres unmarked),22Rv1,"RNA-seq, measured: RWDD2A mRNA",,concentration not given,reference: DMSO,log2 fold change,-1.51
O=C(N/N=C/c1cc[n+](CC2CC2)c2ccccc12)c1cncc(C(=O)N/N=C/c2cc[n+](CC3CC3)c3ccccc23)n1,hp2 hairpin duplex DNA,FRET melting,,"1 µM, with: ds26 10 µM",,ΔTm,1.4 °C
CN1CCCNC(=O)c2cccc(c2)C(=O)NCCCN(C)CCCNc2cccc3c2C(=O)c2cccc(c2C3=O)NCCC1,SAS,"RNA-Seq, measured: CNDP2 mRNA",,"1 µM, 6 h",reference: untreated cells,log2 fold change,0.478
C=C(NC(=O)c1csc(-c2nc3c(cc2O)-c2nc(cs2)C(=O)NC(C(C)O)C(=O)NC(=C(C)OC)c2nc(cs2)C(=O)NC2c4nc(cs4)C(=O)NC(COC(=O)c4c5c6c(cccc6n4O)COC(=O)C(OC4CC(C)(O)C(N(C)C)C(C)O4)C2OC5)c2nc-3cs2)n1)C(N)=O (centres unmarked),Staphylococcus epidermidis,,,,,MIC50,7.8 ng/mL
C=CC(=O)N1[C@H](c2ccc3c(c2)OCO3)c2[nH]c3ccccc3c2C[C@@H]1C(=O)N1CCN(C)CC1,human cyclin E1 N112C-3xFLAG:CDK2,"co-IP with TMT proteomics, measured: NUP98",,"concentration not given, P52948",reference: wild type DMSO,relative co-enrichment,107%
CCN(CC)CC(=O)Nc1cccc(-n2cc(-c3ccc4ccc(-c5cn(-c6cccc(NC(=O)CN(CC)CC)c6)nn5)cc4c3)nn2)c1,RCC4,"PCR angiogenesis array, measured: THBS2",,"5 x IC50, 4 h, normoxia",reference: untreated,fold regulation,-1.42 fold
CC(C)C[C@H](NC(=O)[C@H](CC(=O)O)NC(=O)CNC(=O)[C@@H](N)CCCNC(=N)N)C(=O)N[C@@H](C)C(=O)N[C@H](C(=O)N[C@@H](CC(C)C)C(=O)N[C@@H](CCCNC(=N)N)C(=O)N[C@@H](CCC(N)=O)C(=O)N[C@@H](CC(C)C)C(=O)N[C@@H](C)C(=O)N[C@@H](CCC(N)=O)C(=O)N[C@@H](CCC(=O)O)C(=O)N[C@@H](CC(=O)O)C(=O)NCC(=O)N[C@H](C(=O)N[C@H](C(=O)NCC(=O)N[C@H](C(=O)N[C@@H](CCCNC(=N)N)C(=O)NCCOCCOCCOCCOCCOCCOCCOCCOCCOCCOCCOCCOCCC(=O)N[C@@H](CS)C(N)=O)C(C)C)C(C)C)C(C)C)[C@@H](C)O,,ex vivo NIR imaging,"NOD/SCID mice, xenograft, H2009 xenograft","intravenous, 30 µg, 24 h",reference: spleen,fluorescence signal ratio,355
CCCC(=O)N1CCN(c2ccc(NC(=O)c3ccc([N+](=O)[O-])o3)cc2Cl)CC1,Mus musculus,"gene silencing, high-content imaging",LDR reporter GFP cells,retest run 1,,AC50,2.51 µM
CC(C)(C)c1cc(-c2ccc3cccnc3n2)nc(-c2ccc3cccnc3n2)c1.COc1ccncc1.[Cl-].[Cl-].[Ru+2].c1ccc2cc3nc4c5cccnc5c5ncccc5c4nc3cc2c1,A-375,resazurin,,"with: light 733 nm, 100 J/cm2",reference: dark EC50 over light EC50,phototoxicity index,32
COc1ccc(NC(=O)CSc2nc3c(oc4ccccc43)c(=O)n2Cc2ccco2)cc1Cl,Mus musculus,"gene silencing, high-content imaging",LDR reporter GFP cells,"30 h, confirmation, mean of two runs",,Emax,37%
O=C(N/N=C/c1ccc2c(ccc[n+]2Cc2ccccc2)c1)c1ccc2ccc3ccc(C(=O)N/N=C/c4ccc5c(ccc[n+]5Cc5ccccc5)c4)nc3c2n1,MYC parallel G4 DNA,FRET melting,,"1 µM, DNA 0.2 µM",,ΔTm,16.6 ± 2.3 °C
Cc1ccc(/C=N/N=C(\S)Nc2cccc(S(=O)(=O)N(C)C)c2)o1,Mus musculus,"gene silencing, high-content imaging",LDR reporter GFP cells,"retest, mean of two runs",,EC50,12.6 µM
C[n+]1cc(/C=N/NC(=O)c2cc(C(=O)N/N=C/c3cc4ccccc4[n+](C)c3)ncn2)cc2ccccc21,hp2 hairpin duplex DNA,FRET melting,,1 µM,,ΔTm,1.5 ± 0.9 °C
Oc1c(/N=N/c2ccccn2)ccc2ccccc12,Mus musculus,"gene silencing, high-content imaging",LDR reporter GFP cells,"30 h, confirmation, mean of two runs",,Emax,75%
C=CC(=O)Nc1cccc(Cn2ncc3cnc(Nc4cnn(CCOC)c4)nc32)c1,human ICK,KINOMEscan,,100 nM,reference: control,binding,46%
COC1OC(C)C(O)C(OC2OC(C)C(O)C(OC3OC(C)C(O)C(OC4OC(C)C(O)C(OC5OC(C)C(O)C(OC6OC(C)C(O)C(OC7OC(C)C(O)C(OC8OC(C)C(O)C(OS(=O)(=O)O)C8OS(=O)(=O)O)C7OS(=O)(=O)O)C6OS(=O)(=O)O)C5OS(=O)(=O)O)C4OS(=O)(=O)O)C3OS(=O)(=O)O)C2OS(=O)(=O)O)C1OS(=O)(=O)O (centres unmarked),,,human plasma,128 µg/mL,,prothrombin time,14.9 ± 0.5 s
CCCCCC(O)/C=C/C=O (centres unmarked),proteome cysteines,"IA-probe labelling, competitive isoTOP-ABPP",MDA-MB-231 proteome,,,IC50,73 µM and 92 µM and 131 µM and 66 µM and 77 µM
O=C(N/N=C/c1ccccn1)c1cc(-c2ccc(Cl)cc2)nc2ccccc12,Mus musculus,"gene silencing, high-content imaging",LDR reporter GFP cells,"retest, mean of two runs",,EC50,10 µM
O=C(N/N=C/c1cc[n+](CC2CC2)c2ccccc12)c1cccc(C(=O)N/N=C/c2cc[n+](CC3CC3)c3ccccc23)n1,hp2 hairpin duplex DNA,FRET melting,,1 µM,,ΔTm,4 ± 1.4 °C
COC1OC(C)C(OC2OC(C)C(OS(=O)(=O)O)C(OC3OC(C)C(OC4OC(C)C(OS(=O)(=O)O)C(OS(=O)(=O)O)C4O)C(OS(=O)(=O)O)C3O)C2O)C(OS(=O)(=O)O)C1O (centres unmarked),,,human plasma,128 µg/mL,reference: control,prothrombin time prolongation,1 fold
Nc1ncc(-c2cc(-c3cnn(CC(F)(F)F)c3)ncc2F)nc1C(=O)NC1CNCC(F)C1 (centres unmarked),PIP5K1C,KINOMEscan,,1 µM,reference: DMSO control,remaining binding,74%
O=C(CSc1cccc[n+]1[O-])c1ccccc1Br,Mus musculus,"gene silencing, high-content imaging",LDR reporter GFP cells,"30 h, retest, mean of two runs",,Emax,98%
COC1OC(C)C(OC2OC(C)C(O)C(OC3OC(C)C(OC4OC(C)C(O)C(OC5OC(C)C(OC6OC(C)C(O)C(OC7OC(C)C(O)C(OS(=O)(=O)O)C7OS(=O)(=O)O)C6OS(=O)(=O)O)C(OS(=O)(=O)O)C5OS(=O)(=O)O)C4OS(=O)(=O)O)C(OS(=O)(=O)O)C3OS(=O)(=O)O)C2OS(=O)(=O)O)C(OS(=O)(=O)O)C1OS(=O)(=O)O (centres unmarked),,,human plasma,128 µg/mL,,prothrombin time,14.7 ± 0.5 s
O=C(N/N=C/c1cc[n+](CC2CC2)c2ccccc12)c1cccc(C(=O)N/N=C/c2cc[n+](CC3CC3)c3ccccc23)c1,MYC parallel G4 DNA,FRET melting,,"1 µM, DNA 0.2 µM",,ΔTm,6.4 ± 0.1 °C
CCC(=O)N1CCN(c2ccc(NC(=O)c3ccc([N+](=O)[O-])o3)cc2Cl)CC1,Mus musculus,"gene silencing, high-content imaging",LDR reporter GFP cells,"30 h, retest, mean of two runs",,Emax,39%
C[n+]1cccc2cc(/C=N/NC(=O)c3cccc(C(=O)N/N=C/c4ccc5c(ccc[n+]5C)c4)n3)ccc21,hp2 hairpin duplex DNA,FRET melting,,1 µM,,ΔTm,2.3 ± 1.1 °C
O=C(NN1C(=O)c2ccccc2NC1c1ccc([N+](=O)[O-])o1)c1ccc([N+](=O)[O-])cc1 (centres unmarked),Mus musculus,"gene silencing, high-content imaging",LDR reporter GFP cells,retest run 2,,AC50,39.8 µM
COC1OC(C)C(OC2OC(C)C(OS(=O)(=O)O)C(OC3OC(C)C(OS(=O)(=O)O)C(OS(=O)(=O)O)C3O)C2O)C(OS(=O)(=O)O)C1O (centres unmarked),,,human plasma,128 µg/mL,,prothrombin time,15.2 ± 0.3 s

# Some of these lines once more:
SMILES,tested on,test,test system,setting,scale,quantity,result
COC1OC(C)C(OC2OC(C)C(O)C(OC3OC(C)C(OC4OC(C)C(O)C(OC5OC(C)C(OC6OC(C)C(O)C(OC7OC(C)C(O)C(OS(=O)(=O)O)C7OS(=O)(=O)O)C6OS(=O)(=O)O)C(OS(=O)(=O)O)C5OS(=O)(=O)O)C4OS(=O)(=O)O)C(OS(=O)(=O)O)C3OS(=O)(=O)O)C2OS(=O)(=O)O)C(OS(=O)(=O)O)C1OS(=O)(=O)O (centres unmarked),,,human plasma,128 µg/mL,,prothrombin time,14.7 ± 0.5 s
O=C(N/N=C/c1cc[n+](CC2CC2)c2ccccc12)c1cccc(C(=O)N/N=C/c2cc[n+](CC3CC3)c3ccccc23)c1,MYC parallel G4 DNA,FRET melting,,"1 µM, DNA 0.2 µM",,ΔTm,6.4 ± 0.1 °C
CCC(=O)N1CCN(c2ccc(NC(=O)c3ccc([N+](=O)[O-])o3)cc2Cl)CC1,Mus musculus,"gene silencing, high-content imaging",LDR reporter GFP cells,"30 h, retest, mean of two runs",,Emax,39%
C[n+]1cccc2cc(/C=N/NC(=O)c3cccc(C(=O)N/N=C/c4ccc5c(ccc[n+]5C)c4)n3)ccc21,hp2 hairpin duplex DNA,FRET melting,,1 µM,,ΔTm,2.3 ± 1.1 °C
O=C(NN1C(=O)c2ccccc2NC1c1ccc([N+](=O)[O-])o1)c1ccc([N+](=O)[O-])cc1 (centres unmarked),Mus musculus,"gene silencing, high-content imaging",LDR reporter GFP cells,retest run 2,,AC50,39.8 µM
